Measured values gathered from unrelated publications.
Protocols differ between the studies behind these lines. Numbers after ± are the reported error.

Compound | assay | test system | conditions | scale | measurement | result
NC(CO)(CO)CCc1ccc(Sc2cccc(OCc3ccccc3)c2)cc1Cl |  | human, supine | oral, 3 mg, 0 to 312 h, with: cyclosporin 100 mg |  | pulse rate AUEC, median | 18700 h×bpm
CCCCOC(=O)N1CCN(C(=O)[C@H](CP(=O)(O)O)NC(=O)c2cc(N3CC[C@H](OC)C3)nc(-c3ccccc3)n2)CC1 | item: haemoglobin | human, blood | 8 mg, 24 h post-dose |  | change from baseline | -1.1 ± 7.2 g/L
O=S(=O)(c1ccc(-c2ccc3nccc(Nc4ccncn4)c3c2)cc1)N1CCOCC1 |  | female BALB/c mice, brain | intraperitoneal, 10 mg/kg, 8 h, mean |  | brain concentration | 0 ng/g
CO[C@H]1/C=C/O[C@@]2(C)Oc3c(C)c(O)c4c(O)c(c(/C=N/N5CCN(C)CC5)c(O)c4c3C2=O)NC(=O)/C(C)=C\C=C\[C@H](C)[C@H](O)[C@@H](C)[C@@H](O)[C@@H](C)[C@H](OC(C)=O)[C@@H]1C |  | healthy humans | oral, dose not given |  | nervous system adverse events | 33.3%
C=CC(=O)N1CCC(c2ccc(C(N)=O)c(-c3ccc(Oc4ccccc4)cc3)n2)CC1 | CTCAE 4.03 | patients with relapsed/refractory MCL | oral, dose not given |  | incidence of serious embolic cerebral infarction | 0.9%
COc1ncc(-c2nc3c(n2C(C)C)[C@H](c2ccc(Cl)cc2)N(c2cc(Cl)cn(C)c2=O)C3=O)c(OC)n1 | LC-MS/MS | human, plasma | oral, 4 mg, cycle 1 day 14, low-dose arm |  | Cmax | 25.6 ng/mL
CCN1/C(=C/C(C)=O)Sc2ccc(F)cc21 |  | cynomolgus monkey | oral, 10 mg/kg, 6 h post-dose | reference: pre-dose | mean blood pressure change | 113 ± 12.7%
CC(C)[C@H](C(=O)Nc1ccc(C(=O)NO)cc1)c1ccccc1 |  | whole blood | 10.0 ng/mL, 1 h, 4 °C, stability on ice |  | measured concentration | 10.7 ng/mL
CC(C)Oc1c(NC(=O)c2ccc(NC(=O)[C@H](CC(N)=O)NC(=O)c3ccc(NC(=O)c4ccc(C#N)cc4)cc3)cc2)ccc(C(=O)N/N=C/c2ccc(C(=O)O)cc2)c1O | absorbance | DMSO | 50 °C, PSS to ground state relaxation |  | thermal half-life | 0.6 h
CCN1CCN(Cc2ccc(NC(=O)c3ccc(C)c(NC(=O)c4cncc(-c5cccs5)c4)c3)cc2C(F)(F)F)CC1 | LC-MS/MS | C57BL/6 mouse, plasma | intraperitoneal, 15 mg/kg single dose, 2 h |  | mean plasma concentration | 238 ng/mL
Cn1cc(-c2cn3nccc3c(-c3cnn([C@]4(CC#N)C[C@@H](C#N)C4)c3)n2)cn1 |  | healthy humans fed, plasma | 400 mg once daily, day 10, geometric mean |  | average concentration | 226 ng/mL
COc1cccc(OC)c1-c1cc(C(=O)NC2(C(=O)O)C3CC4CC(C3)CC2C4)nn1-c1ccc(C(=O)N(C)CCCN(C)CCCN(C)C(=O)CN2CCN(CC(=O)[O-])CCN(CC(=O)[O-])CCN(CC(=O)[O-])CC2)cc1C(C)C.[177Lu+3] (centres unmarked) |  | mouse, HT-29 xenograft, lung | 4 h post injection |  | tissue uptake | 4.5 %ID/g
Cc1cc(NC2CCN(C(=O)OC3CCN(C(=O)/C=C/CN(C)C)C3)CC2)n2ncc(C(C)C)c2n1 (centres unmarked) | Phase I dose escalation CTCAE v4.0, item: small intestinal obstruction | patients with advanced solid tumours | dose not given, QD dosing any grade |  | patients with adverse event | 7%
Cc1c(-c2ccc(N3CCc4cccc(C(=O)Nc5nc6ccccc6s5)c4C3)nc2C(=O)O)cnn1CC12CC3(C)CC(C)(C1)CC(OCCNCC[C@H](O)CO)(C3)C2 |  | beagle dog, anaesthetised | intravenous infusion, 0.1 mg/kg/min, 60 min | reference: baseline | mean arterial pressure change | -1 mmHg
CN(C(=O)n1cnc(-c2ccc[n+]([O-])c2)c1)[C@H]1CC[C@H](O)CC1 |  | Wistar rat, pons | oral, 10 mg/kg/day of BIA 10-2474, 4 h, repeated 5 days |  | concentration | 10.3 ± 0.6 ng/g
NCCOCC(=O)N1CCC[C@H](C(=O)NCc2nc(-c3ccc(C(F)(F)F)cc3)cs2)C1 |  | Sprague-Dawley rat, male, urine | intravenous, 1 mg/kg, 24 h | reference: dose | urinary excretion | 15%
N#Cc1ccc(C(c2ccc(C#N)cc2)n2cncn2)cc1 |  | human patients, tumour tissue at surgery | 15 mg daily |  | tumour concentration | 529 ± 81.5 ng/g
NC1(C(=O)N[C@@H](CCO)c2ccc(Cl)cc2)CCN(c2nc[nH]c3nccc2-3)CC1 |  | metastatic CRPC patients | 320 mg b.i.d., any grade, treatment-related, with: enzalutamide 160 mg daily |  | incidence of Somnolence | 0%
C[C@H](CCC(=O)NCC(=O)O)[C@H]1CC[C@H]2[C@@H]3[C@H](O)C[C@@H]4C[C@H](O)CC[C@]4(C)[C@H]3CC[C@]12C |  | human, plasma | endogenous baseline diurnal | reference: daily mean concentration | relative peak deviation | 184 ± 20%
O=C(NCCN1CCCC1)c1cc(-c2ccc(CN3CCOCC3)cc2)nc2ccc(F)cc12 |  | human, whole blood | oral, 2100 mg, 1.5 h |  | blood concentration | 1240 ng/mL
N#CCNC(=O)c1ccc(-c2ccnc(Nc3ccc(N4CCOCC4)cc3)n2)cc1 |  | healthy human volunteers, plasma | oral, dose not given, with: multiple-dose rifampin | reference: compound alone | AUC0-last ratio | 89.5%
Cc1ccc(C)c(OCCCC(C)(C)C(=O)O)c1 | item: CL/F | human subjects, plasma | oral, dose not given, with: lopinavir-ritonavir | reference: with over without lopinavir-ritonavir | geometric mean ratio | 1.69

Compound | assay | test system | conditions | scale | measurement | result
C=CC(=O)Nc1cc(Nc2nccc(-c3cn(C)c4ccccc34)n2)c(OC)cc1N(C)CCN(C)C | storage stability | human dried blood spots | 24 h, -80 °C, LLOQ level |  | recovery | 82.6%
Cc1noc(C)c1-c1cc(C(O)(c2ccccn2)c2ccccn2)c2nc(C3CC3)[nH]c2c1 |  | human patients, plasma | oral, 0.6 mg, cycle 1 day 8, monotherapy, 24 h |  | Ctau | 14.7 ng/mL
CC(=O)N(C)[C@H]1CCN(C(=O)c2cnc3c(c2)C[C@](C)(c2ccc(F)cc2)N3)C1 |  | human | dose not given |  | creatine kinase-MB | 11.8 µg/L
COc1ccc2c(=O)n(C)c(-c3ccccc3)nc2c1 |  | Sprague-Dawley rat, male, bladder | oral, 30 mg/kg, 2 h |  | tissue concentration | 14 ng/mL
CC(C)(C)c1ccc(O)c(CN(Cc2cc(C(C)(C)C)ccc2O)C2CCC(NC(N)=O)CC2)c1 (centres unmarked) |  | C57BL/6 mice, male, brain | intraperitoneal, 10 mg/kg, single dose |  | dose-normalised Cmax | 107 ng/g per mg/kg
O=C(Nc1cnccc1Cl)N1CCN(Cc2ccc3c(c2)OC(F)(F)O3)CC1 |  | young women, plasma | oral, 100 mg once daily, day 10, normalized to 10 mg |  | dose-normalized Cmax | 94.9 ng/mL
CCO[C@H]1CCN(Cc2c(OC)cc(C)c3[nH]ccc23)[C@H](c2ccc(C(=O)O)cc2)C1 |  | PNH patients, active haemolysis | oral, 200 mg, 8 weeks, treatment |  | incidence of cough | 0%
CCn1cc(C(=O)N2CCOCC2)c(=O)c2cc(NC3Cc4ccccc4C3)cnc21 |  | human male, fed, plasma | oral, 900 mg twice daily, day 1, tablet, arithmetic mean |  | half-life | 4.93 h
CCc1cc(C(=O)NC)c2nccc(N3CCc4c(cc(Cn5ccnc5)cc4-c4cn(C)nc4C(F)(F)F)C3=O)c2c1 |  | Sprague Dawley rats | oral, 100 mg/kg once daily, 7 days |  | mean corpuscular volume | 67.2 ± 1.05 fL
O=C1CC[C@H](N2Cc3cc(N4CCN(CC5CCN(c6ccc([C@@H]7c8ccc(O)cc8CC[C@@H]7c7ccccc7)cc6)CC5)CC4)ccc3C2=O)C(=O)N1 |  | fasted Sprague-Dawley rat, plasma | oral, 20 mg/kg | reference: male rats | half-life excess female over male | 83.2%
CO[C@H]1C[C@@H]2CC[C@@H](C)[C@@](O)(O2)C(=O)C(=O)N2CCCC[C@H]2C(=O)O[C@H]([C@H](C)C[C@@H]2CC[C@@H](O)[C@H](OC)C2)CC(=O)[C@H](C)/C=C(\C)[C@@H](O)[C@@H](OC)C(=O)[C@H](C)C[C@H](C)/C=C/C=C/C=C/1C |  | healthy adult horses | oral, 0.06 mg/kg, 1 h |  | rectal temperature | 36.8 ± 0.3 °C
C[C@@H](Oc1ccc(S(C)(=O)=O)cc1C(=O)N1C[C@@H]2C[C@]2(c2cc(C(F)(F)F)on2)C1)C(F)(F)F | item: 14C radioactivity | human, faeces | oral, 25 mg, 0 to 677 h, geometric mean | reference: dose | faecal excretion | 48.3%
CC(C)(C(=O)N1CCOc2c(C#N)cncc2C1)C(F)F | item: Arthralgia | human | oral, 15 mg twice daily, 14 days, multiple ascending dose |  | subjects with adverse event | 12.5%
CCn1c(C(=O)N(C2CC2)C2CC2)cc2c3c(ncn3C)c(Nc3cc(C)n(C)n3)nc21 |  | cancer patients | oral, 200 mg twice daily, day 15, 344.0 h |  | plasma concentration | 5890 ng/mL
CN1CCN(c2cccc3c2CCN(C(=O)/C=C/c2c(-n4cnnn4)ccc(Cl)c2F)[C@@H]3C(=O)Nc2ccc(C(=O)O)cc2)C(=O)C1 |  | healthy human subjects | intravenous infusion, 3 mg/h, 5 days |  | subjects with any adverse event | 12.5%
C[C@H]1CN(C(=O)CC#N)[C@]12CCN(c1ncnc3[nH]ccc13)C2 |  | human | oral, 1.5 mg single dose |  | participants with catheter site bruise | 12.5%
C[C@H](CCC(=O)NCC(=O)O)[C@H]1CC[C@H]2[C@@H]3CC[C@@H]4C[C@H](OS(=O)(=O)O)CC[C@]4(C)[C@H]3CC[C@]12C |  | human, plasma | endogenous control diurnal | reference: daily mean concentration | relative peak deviation | 89.5 ± 14.5%
CNCc1ccc(-c2[nH]c3cc(F)cc4c3c2CCNC4=O)cc1 |  | patients | oral, 600 mg twice daily, grade 2 |  | cough incidence | 0%
CCOc1c([C@H](C)n2nc(C)c3c(N)ncnc32)cc(Cl)c(F)c1[C@@H]1CNC(=O)C1 |  | rat plasma | 5 ng/mL, 4 h, 10 °C, autosampler | reference: nominal concentration | stability relative error | 14.5%
O=C(Nc1nc2cccc(-c3ccc(CN4CCS(=O)(=O)CC4)cc3)n2n1)C1CC1 | item: blood calcium increased | rheumatoid arthritis patients | oral, 75 mg once daily, 4 weeks, any relatedness |  | treatment-emergent adverse events | 0%
Cn1cc(Nc2nccc(-c3ccc4c(c3)CN(C3COC3)CC[C@H]4NC(=O)c3cn(C(C)(C)C)nn3)n2)cn1 |  | human, whole blood | 150 mg twice daily, day 14 | reference: pre-dose baseline | transitional B cell count change | -25.4%
Cc1cc(-c2nnc(N)nc2-c2ccc(F)cc2)cc(Cl)n1 |  | human, post-IO NSCLC | oral, 100 mg, phase Ia/Ib, any grade |  | patients with treatment-related AE | 94.1%

Repeated from above:
Compound | assay | test system | conditions | scale | measurement | result
CNCc1ccc(-c2[nH]c3cc(F)cc4c3c2CCNC4=O)cc1 |  | patients | oral, 600 mg twice daily, grade 2 |  | cough incidence | 0%
Cc1cc(-c2nnc(N)nc2-c2ccc(F)cc2)cc(Cl)n1 |  | human, post-IO NSCLC | oral, 100 mg, phase Ia/Ib, any grade |  | patients with treatment-related AE | 94.1%
CCN1/C(=C/C(C)=O)Sc2ccc(F)cc21 |  | cynomolgus monkey | oral, 10 mg/kg, 6 h post-dose | reference: pre-dose | mean blood pressure change | 113 ± 12.7%
CN(C(=O)n1cnc(-c2ccc[n+]([O-])c2)c1)[C@H]1CC[C@H](O)CC1 |  | Wistar rat, pons | oral, 10 mg/kg/day of BIA 10-2474, 4 h, repeated 5 days |  | concentration | 10.3 ± 0.6 ng/g
